Measured values gathered from unrelated publications.
Each numbered part is a random draw from the data of one study; scales do not carry over between parts.

Sample 1
Target: Sal-like protein 4, full length isoform B (SALL4, Homo sapiens, UniProt Q9UJQ4-2, residues 1-616)
Technique: universal PBM
Molecule type: double-stranded DNA, one strand shown
Medium: in vitro
Concentration: not given
Setting: 8-mer, flanks averaged, mean of replicates
Direction: higher = stronger binding
Measurement: E-score
AAAAATAC: 0.231
AGCATAAA: 0.293
GCCAGAGA: -0.153
ATGGGTCA: -0.0138
ATCTAGAT: 0.0904
ATATTCAC: 0.319
ATGCGAAG: 0.19
CCTTAGTA: 0.0295
GATGCTCC: -0.115
ATCGACTC: -0.0381
CGCTCGGC: -0.375
AGTATCTC: 0.0528
CGCGATCC: -0.111
ACCTTATG: 0.242
CTATTGAA: 0.214
TAATGCAA: 0.278
CGTACGCC: -0.138
ACGCTAAT: 0.102
ATGATGAC: 0.0639
CTGACATC: -0.0601
AGGGTGGA: -0.1
CTATGCTA: 0.2
CCCCACAG: -0.267
ATTGGGCG: -0.0518

Sample 2
Target: Prothrombin, mature alpha-thrombin (F2, Homo sapiens, UniProt P00734)
Technique: aptamer microarray, sandwich
Molecule type: DNA with 2'F-ANA
Medium: in vitro
Concentration: 200 nM
Setting: whole 15-mer aptamer, many near background
Added: Cy3 exosite-II aptamer, 400 nM
Direction: higher = stronger binding
Measurement: mean fluorescence intensity
Strand: GGTTGGTGTGGTTGG
2'F-ANA at 1 2 5 6 7 9 10 11 14: 59.7 a.u.
2'F-ANA at 2 3 4 7 8 9 11 12 13 14: 296 a.u.
2'F-ANA at 1 3 4 8 9 12 14: 95.4 a.u.
2'F-ANA at 2 4: 366 a.u.
2'F-ANA at 1 4 5 6 7 9 11 13 14 15: 45.9 a.u.
2'F-ANA at 3 4 5 6 7 10 11 12 14 15: 94.8 a.u.
2'F-ANA at 1 3 4 9 10 12 13 14 15: 58.7 a.u.
2'F-ANA at 2 5 8 12 15: 169 a.u.
2'F-ANA at 1 2 3 5 9 10 12 15: 47.2 a.u.
2'F-ANA at 1 7 9 11 12 13 14: 62.9 a.u.
2'F-ANA at 1 2 3 4 5 6 8 9 10 11 12 15: 51.1 a.u.
2'F-ANA at 5 6 9 10 12 14: 44 a.u.
2'F-ANA at 2 4 7 11 12 13 14: 121 a.u.
2'F-ANA at 1 2 3 4 6 7 10 12 14: 49.2 a.u.
2'F-ANA at 1 3 6 7 8 10 11 12 13 14: 64.6 a.u.
2'F-ANA at 1 4 6 8 10 12 13 15: 63.6 a.u.
2'F-ANA at 2 4 5 8 9 10 11 12 15: 84.8 a.u.
2'F-ANA at 3 5 6 7 11 12 14: 63.2 a.u.
2'F-ANA at 3 4 6 7 9 10 11 12 14 15: 303 a.u.

Sample 3
Target: Ras GTPase-activating protein-binding protein 1, full length (G3BP1, Homo sapiens, UniProt Q13283)
Sequence of UniProt Q13283 (whole entry, looked up): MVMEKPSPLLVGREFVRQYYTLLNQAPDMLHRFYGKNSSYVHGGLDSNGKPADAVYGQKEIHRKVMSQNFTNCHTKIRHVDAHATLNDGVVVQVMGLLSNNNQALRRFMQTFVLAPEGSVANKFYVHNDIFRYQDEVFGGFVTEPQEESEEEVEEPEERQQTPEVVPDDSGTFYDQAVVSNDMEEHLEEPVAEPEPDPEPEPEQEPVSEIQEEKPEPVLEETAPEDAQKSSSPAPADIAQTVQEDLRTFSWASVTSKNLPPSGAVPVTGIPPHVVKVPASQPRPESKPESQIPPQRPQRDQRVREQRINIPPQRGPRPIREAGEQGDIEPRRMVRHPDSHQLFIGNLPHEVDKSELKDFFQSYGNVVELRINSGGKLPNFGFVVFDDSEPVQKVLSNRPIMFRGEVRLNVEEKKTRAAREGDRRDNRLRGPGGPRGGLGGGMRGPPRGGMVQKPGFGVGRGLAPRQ
Technique: RNA Bind-n-Seq
Molecule type: RNA
Medium: in vitro
Concentration: 200 nM
Setting: whole 134-nt RNA, ends assumed
Added: 150 mM LiCl
Reference: input library
Direction: higher = stronger binding
Measurement: log2 enrichment
Each molecule: 7-deaza-guanosine replaces G
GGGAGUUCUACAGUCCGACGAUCCCUGUGCUACACAUCGUAUGUACCGAAUCGGUUUUUUUGGUUUUUUUGGUUUUUUUGGGGAAAGUAUUAUGUUACGCCGUUCGGAUCUGCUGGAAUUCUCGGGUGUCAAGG: -0.165
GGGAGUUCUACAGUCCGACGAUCGUCCUGUGCUACACAUCGUAUGUACCGAAUCGGGGAAAAAGGGGAGGGGAAAAAGGGGAAAGUAUUAUGUUACGCCGUUCGGAUCUGCACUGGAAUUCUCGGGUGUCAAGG: 0.25
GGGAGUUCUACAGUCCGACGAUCUGCGAUAUGAACGUUCACAAGCAAUGCGUCAUCAAUGUCCCCAGCCUCUGCGGAAUGGAUCACACUGAGAAGAGGGGGCGGAUUUACCUAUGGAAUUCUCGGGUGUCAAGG: -0.53
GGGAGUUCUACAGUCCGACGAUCCACAGACAACACGCACCCACACAGACGCAGAGGGAAGGGGUUGGGAUGGGGACAGGGUGCACAGCAGGGCGGGGUAGGACCCCAGCCCCUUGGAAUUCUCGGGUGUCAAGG: 0.00988
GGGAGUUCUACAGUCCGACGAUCAGUCCUGUGCUACACAUCGUAUGUACCGAAUCGGGUUUUUGGGUUUUUGGUUUUUGGAAAGUAUUAUGUUACGCCGUUCGGAUCUGCACUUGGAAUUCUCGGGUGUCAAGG: -0.988
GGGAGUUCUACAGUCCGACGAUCAAGUCCUGUGCUACACAUCGUAUGUACCGAAUCGGGGUUUGGGGAAAGGGGAGGGGAAAGUAUUAUGUUACGCCGUUCGGAUCUGCACUUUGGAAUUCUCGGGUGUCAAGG: 0.653
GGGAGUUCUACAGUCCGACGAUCAAGUCCUGUGCUACACAUCGUAUGUACCGAAUCGGGGAGGGGAAAGGGGUUUGGGGAAAGUAUUAUGUUACGCCGUUCGGAUCUGCACUUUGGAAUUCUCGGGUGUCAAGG: -0.599
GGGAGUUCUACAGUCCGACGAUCGCAGGAAGUAAAAACAAAAGGAAAUGCUUCGGAUAGUGGCAGGGGUGGGGGUUGCUAAGGAAAGGGUGGGAUGGGAGUGGGUAAAGAGUUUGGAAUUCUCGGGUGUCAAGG: 0.214

Sample 4
Target: RNA binding protein fox-1 homolog 2, RRM domain, GST-SBP tag (RBFOX2, Homo sapiens, UniProt O43251-10, residues 100-194)
Technique: RNA Bind-n-Seq
Molecule type: RNA
Medium: in vitro
Concentration: 365 nM
Setting: natural RNA segment, single round, ends assumed
Reference: no-protein control
Direction: higher = stronger binding
Measurement: RBNS enrichment (R)
Construct (chain): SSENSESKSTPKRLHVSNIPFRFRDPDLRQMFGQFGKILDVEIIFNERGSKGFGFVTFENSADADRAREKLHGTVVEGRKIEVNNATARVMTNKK
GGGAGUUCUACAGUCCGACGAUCCACUGGAAUAAUACUAUUUAUUUUCACCUGUGAAAAAUGACUUCAUUGUACUUGAAACACCUCCUUUGCAUUUCUCCAUUUGUGCCAUUCACUAGUGGAAAUAAAUUGUAUGGAAUUCUCGGGUGCCAA: 0.368
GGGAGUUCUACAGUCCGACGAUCUAAUGGGGCCUAUGACUUGAAUGAAUAGAAAUGAAUAAGCUGGUGUUUGUUUUUUCAAAAUGGAAGUAAUUUAGAUUUGUUCUCCUCAUACAUAAAAUGAUUUUAGUUCAUGGAAUUCUCGGGUGCCAA: 0.605
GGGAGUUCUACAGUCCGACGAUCGUACAGGAAGAGGCAGGCACUGGCUGGCUCAGCUCCACUCGGGUGGAGUGGAAGUGGCCAGACCAUUUAGACGGACAGGGUCCUCACCCUACCCCUUUCCUGUGAGGCAGUGGAAUUCUCGGGUGCCAA: 2.15
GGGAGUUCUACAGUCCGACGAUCGAUGGAGUGAUGUUGUGGGCACAAGGCAUCUGUCAGCUGCCUCCUUUAACAGCCAUGCCUUCUGGAAUCUGGAAGAGGACACCACUCCUGCAGUCACUGGGCAGCCACAUUGGAAUUCUCGGGUGCCAA: 0.41
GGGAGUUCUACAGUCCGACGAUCAUUCUGAAAAAUUUUACACAUGUAUGGCAACACCUGAUCUAUCGGUUAUCCAACGCUUCAUUGUACCAGACAUUGUCCAGAAGUUUCAAAGACCCUUUGCAAACCCUGAAUGGAAUUCUCGGGUGCCAA: 0.258
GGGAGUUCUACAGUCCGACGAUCUUUACUAACAAGUAGACUAAUGUAGACAUUCACAGACGGGAUAGCGCAGAAGCAUCUUCACACGACAAGUCUCCAAAAAAAAAAAGCUAAUUCAGAGAGGGCGGGAGGAAUGGAAUUCUCGGGUGCCAA: 0.897
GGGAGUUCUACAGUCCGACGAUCAUUAAACAGACCUUAGUUUCCAUAUAGAAACUUUAUAACUGAAACACCCUUAAGUAUUUAUAUUCUUUAAUUAUCUGACCCACAAGGAGGGACCUCGGCUUCUUGAGGCAUGGAAUUCUCGGGUGCCAA: 1.58
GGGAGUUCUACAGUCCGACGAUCUUAAAGGCCAAACGGACUGUCCCAUUUUGGGGAUCAGGACAUCCCUGUCCUUAUCUCCUGUCAUAGCUGUCCAACUGCAGGGUAAGGAGCAAGUUGUGAGGAAAGGUCCUUGGAAUUCUCGGGUGCCAA: 0.248

Sample 5
Target: Histone acetyltransferase KAT6A, both winged helices, GST fusion (KAT6A, Homo sapiens, UniProt Q92794, residues 1-181)
Technique: protein binding microarray
Molecule type: double-stranded DNA, one strand shown
Medium: in vitro
Concentration: not given
Setting: 8-mer, flanks averaged, mean of 2 arrays, mostly near background
Reference: not given
Direction: higher = stronger binding
Measurement: E-score
Construct (chain): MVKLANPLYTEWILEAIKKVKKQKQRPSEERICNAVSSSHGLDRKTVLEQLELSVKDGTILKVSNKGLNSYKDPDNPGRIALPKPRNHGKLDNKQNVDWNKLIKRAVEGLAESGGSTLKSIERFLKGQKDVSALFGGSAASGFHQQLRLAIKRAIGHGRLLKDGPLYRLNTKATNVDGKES
AGTACTCG: -0.0158
CCGCCCTC: 0.197
GTTAGGCA: -0.183
CGGTTGTC: 0.064
AAACGTGC: -0.0355
GCCCAGGA: -0.186
CAGTGAGG: -0.138
GTTCGCGA: 0.222
GAACTCGC: 0.0741
CCCAGCTA: -0.293
GGTCCTCA: -0.00416
GAAAGGCA: -0.0915
GATCTTCC: 0.0489
ACGGAACC: 0.294
ACTGCTCG: -0.0429
CGCTTAGA: 0.0938
ACTAGTCA: -0.181

Repeated from above (sample 5):
AGTACTCG: -0.0158
GAACTCGC: 0.0741
GAAAGGCA: -0.0915
GCCCAGGA: -0.186
GTTCGCGA: 0.222
ACTGCTCG: -0.0429
GGTCCTCA: -0.00416
GATCTTCC: 0.0489
